Published values collected from several papers.
Every numbered part comes from another study and shows a few of its results, in no order. Positions count from the first letter of the parent shown.

Series 1
Target: CCND2, cyclin fold, Cln2 fusion (human)
Technique: yeast growth competition, sequencing
Medium: yeast
Setting: weak parent motif
Reference: not given
Reading: higher = stronger binding
Parent: SCAPER docking peptide (human); SNARRSLNFGGST; partner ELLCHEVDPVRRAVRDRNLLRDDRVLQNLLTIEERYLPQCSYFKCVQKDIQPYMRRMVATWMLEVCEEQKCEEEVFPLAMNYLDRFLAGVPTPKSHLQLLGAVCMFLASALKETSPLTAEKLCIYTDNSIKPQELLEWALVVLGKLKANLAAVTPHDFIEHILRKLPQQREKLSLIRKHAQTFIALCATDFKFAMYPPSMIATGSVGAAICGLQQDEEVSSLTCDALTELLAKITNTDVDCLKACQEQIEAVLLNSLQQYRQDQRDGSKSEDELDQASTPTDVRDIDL
| Change | normalised enrichment score |
| --- | --- |
| SNARRSLNFVGST [G10V] | -0.282 |
| SNARRELNFGGST [S6E] | 0.18 |
| SNARRSLNFGGSP [T13P] | 0.717 |
| SNARRSLGFGGST [N8G] | 0.132 |
| SNARRSSNFGGST [L7S] | 0.157 |
| SNARRSLAFGGST [N8A] | 0.13 |
| SNARRSLNFGGSV [T13V] | 0.592 |
| SNARRSLNEGGST [F9E] | -0.263 |
| LNARRSLNFGGST [S1L] | 0.354 |
| SNARRSLNFGDST [G11D] | 0.588 |
| SNARRSLVFGGST [N8V] | 0.418 |
| SNARQSLNFGGST [R5Q] | 0.327 |
| SNARRSLNFNGST [G10N] | 0.142 |
| SNLRRSLNFGGST [A3L] | -0.282 |
| SNARRSLNDGGST [F9D] | 0.177 |
| SNDRRSLNFGGST [A3D] | -0.135 |
| SNRRRSLNFGGST [A3R] | -0.107 |
| SNARRSHNFGGST [L7H] | 0.255 |
| SNARRSLNFGGSN [T13N] | 0.732 |
| SNYRRSLNFGGST [A3Y] | 0.372 |
| SNARRSLNFGGSY [T13Y] | 0.345 |
| SNARRSLNFGGHT [S12H] | 0.504 |
| YNARRSLNFGGST [S1Y] | 0.755 |
| SNARRSGNFGGST [L7G] | 0.0399 |
| SNADRSLNFGGST [R4D] | 0.315 |

Series 2
Target: RING finger protein unkempt homolog, zinc fingers 1-6, GST-SBP tag (UNK, Homo sapiens, UniProt Q9C0B0, residues 30-357)
UniProt Q9C0B0, sequence (30-357, looked up): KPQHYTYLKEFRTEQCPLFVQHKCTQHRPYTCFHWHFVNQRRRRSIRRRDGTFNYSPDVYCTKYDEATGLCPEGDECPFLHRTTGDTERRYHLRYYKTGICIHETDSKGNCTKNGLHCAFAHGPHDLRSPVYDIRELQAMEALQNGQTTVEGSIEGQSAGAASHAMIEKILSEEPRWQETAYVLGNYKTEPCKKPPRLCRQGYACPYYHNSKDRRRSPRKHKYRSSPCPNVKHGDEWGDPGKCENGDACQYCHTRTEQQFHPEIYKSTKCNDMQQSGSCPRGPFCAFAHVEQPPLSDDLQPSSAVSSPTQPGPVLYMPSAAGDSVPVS
Technique: RNA Bind-n-Seq
Form: RNA
Medium: in vitro
Concentration: not given
Setting: RNA with constant flanks, human and mouse sites, ends assumed
Reference: input RNA pool
Reading: higher = stronger binding
Shared flanks, not repeated: GGGAGUUCUACAGUCCGACGAUC … CAACAGAGGAUUGAGCAUCA
| Strand | bound/input enrichment [ratio] |
| --- | --- |
| AAGGAAAGAAUACUGAAAAUUGUCACUGGAUUUAAUGGUAUCCCUUUUACUAUUCAGCGACUAUGUGAAUUGUUAACAGAUCCAAGGAGAAACUAUACAGGAACAGACAAAUUUCUCAGA | 0.205 |
| UGCAAAGGACUUGCAGCUUUGCCCCACUCAUGCCUGGAAAGGGCCAAGGAGAUUAAGAUCAAGUUGGGAAUUCUCCUCCAGAAGCCAGACUCAGUUGGUGACCUUGUCAUUCCGUACAAU | 0.0952 |
| UGGAAGUUGGAUACACUUUGUGACUUGUACGAGACACUGACCAUUACACAGGCUGUUAUUUUUCUCAAUACGAGGCGCAAGGUGGACUGGCUGACUGAGAAGAUGCAUGCCAGAGACUUC | 0.0868 |
| AGAAUGGAAGAUUUCACCUUCAAUGACUUGUGUAUUAAACUGGGUUUUCCUUACUUAUACUGUCAUCAGGGAGACUGUGAACAUGUCAUUGUCAUUACUGACAUAAGGCUUGUGCAUCAU | 0.19 |
| CAAAACCUAGACGGCCUCUUGAACCAGCUGAAGAACUUCCCUGCGAGGCUUCGGCAGUAUGCUUCCUAUGAGUUUGUUCAGAGGCUGCUGAAAGGCUACAUGAAGAUAAACAUGUUGGUA | 0.0966 |
| ACACACACCCUAGAAUGCUCGCUUUGCAGCACAGGCAGGAGCAGCAGCAAGCAGCAGGUGUUUAGAUCCUUGGUUUUGAGAAAUUCCCCCCUAAGUAUGUGGCAAUAAGUAUAAGCCACU | 0.292 |
| CAGCAUGUCAUAGAAACCUUGAUUGGCAAAAAGCAACAGAUAUCUCUUGCAACACAAAUGGUUAGAAUGAUUUUGAAGAUUGAUGACAUUCGUAAGCCUGGAGAAUCUGAAGAAUGAAGA | 0.374 |
| GUUAAUAUGGAGUCAGUUUUUGACUAUAGUAUAAAUUCUGUACAUGAUGAGAAAAUGGAAGAGCAAACUGAAAUUCUUCAAAAUGGCUUCAAUCCUGAAGAAGAUAAAUGCAAUAACUGU | 0.292 |
| UCUAUUGCUACAAGAGAGGGAGUUACCGUUUUGUAUUCUAAACUGAUCAGCAAUAAGGAAGUAGUACCUUUGCCUCAACAGGUUUUAUGCCUCAAAGGACCACAGUUGCCUGAUUUUGAA | 0.11 |
| GCUUCCCUUUUUCUCCUCACAAGGAGGUGAGGCUGGGACCUCCGGGCCAGCUUCUCACCUCAUAGGGUGUACCUUUCCCGGCUCCAGCAGCCAAUGUGCUUCGGAGCCACUCUCUGCAGA | 0.326 |
| CUUACACAUAAACUGGUAUUUUCGAACAAUAGGAAACUAUUUUUUCUCCUUUUUUUACAGUUUUAGUACGUAUCUGGCUUGUAUGUGGAAGACUAAAAAGUUGAUUUGCUAAAUGUGGUC | 0.358 |

Series 3
Target: Histone acetyltransferase KAT6A, winged helix 1, GST fusion (KAT6A, Homo sapiens, UniProt Q92794, residues 1-85)
Technique: protein binding microarray
Form: double-stranded DNA, one strand shown
Medium: in vitro
Concentration: not given
Setting: 8-mer, flanks averaged, mean of 2 arrays, mostly near background
Reference: not given
Reading: higher = stronger binding
Construct (chain): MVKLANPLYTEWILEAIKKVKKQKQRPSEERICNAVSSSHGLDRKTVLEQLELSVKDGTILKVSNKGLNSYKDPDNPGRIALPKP
| Strand | E-score |
| --- | --- |
| CAGTAGCA | -0.0515 |
| TCCCACAA | -0.135 |
| ATTCCAGA | -0.013 |
| CAAGGCCG | 0.179 |
| GACTTTGA | -0.137 |
| CACGTAGG | -0.203 |
| AGTTCTAT | -0.1 |
| TGCATGAA | -0.151 |
| TGGCACAA | -0.243 |
| CCGAACAC | -0.0241 |
| CTTGTGAC | -0.0227 |
| TCATCCAA | -0.236 |
| GCGAGTCC | 0.238 |
| CAGTCCGC | 0.17 |
| GTTATCCA | -0.194 |
| CTAGCATA | -0.0274 |
| CTACGAGC | -0.0567 |
| CATTTGTA | -0.211 |
| GCACTTTA | -0.156 |
| GGAGGAAC | 0.00136 |
| CTTAGTTA | 0.0255 |
| GGACATTA | 0.105 |

Series 4
Target: Centromere-binding protein 1, full length, N-terminal tag (CBF1, Saccharomyces cerevisiae, UniProt P17106, residues 1-351)
UniProt P17106, sequence (whole entry, looked up): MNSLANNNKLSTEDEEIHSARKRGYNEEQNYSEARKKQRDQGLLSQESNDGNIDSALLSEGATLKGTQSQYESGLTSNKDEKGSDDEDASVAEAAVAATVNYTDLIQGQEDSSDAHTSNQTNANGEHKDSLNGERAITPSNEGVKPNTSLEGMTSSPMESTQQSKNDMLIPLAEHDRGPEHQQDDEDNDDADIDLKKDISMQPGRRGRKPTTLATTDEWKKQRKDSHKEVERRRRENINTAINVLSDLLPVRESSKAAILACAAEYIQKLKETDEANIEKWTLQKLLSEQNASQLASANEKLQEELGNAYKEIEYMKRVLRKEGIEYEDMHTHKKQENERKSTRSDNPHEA
Technique: protein-binding microarray
Form: double-stranded DNA, one strand shown
Medium: in vitro
Concentration: 0.8 µM
Setting: whole 60-bp probe, no competitor
Reading: higher = stronger binding
Shared flanks, not repeated: … GTCTTGATTCGCTTGACGCTGCTG
| Strand | fluorescence intensity [a.u.] |
| --- | --- |
| CTATTTCTATTTCACCACGAACAACATTATGTCTTC | 589 |
| CCTAACTACTATAGTGATGTGGCATAGCTTCGTACA | 537 |
| CTAGGTCTCTTTTTGCACGTTTTTGATGTTGCTTTC | 693 |
| CTAATTATATAAATGGGCCTGATGTTCGTTAAATTC | 497 |
| TGTACGAAGCTATTGTGCGTGCATATAGTAGTTAGG | 527 |
| GAAACATGTACATATCACGTAAGATGTTCCTATTAG | 543 |
| CTAAAAGATAAACACCACGACGTATGCACGGATTTC | 512 |
| CTAACTTCATTTCATCACGCTCATATTGTTTGTTTC | 649 |
| GAAGCCCTTATCAATCACGCTAAAAATTGCCCCTAG | 562 |
| TGTACGAAGCTATAAAACATGCGTATAGTAGTTAGG | 522 |
| CTATGAGTACTTCCTCACCTGATCCAATCGGTTTTC | 872 |
| CTATGGTGCTTGAATCTGATGAGAAACTGAATGTTC | 548 |
| CTATCAATAGAATGCCACGTATATATGGACTTATTC | 527 |
| GAAATTTACTGTTATGGTGATGCTATGTTAGTGTAG | 557 |
| GAACGCAAGTGATGGAATGTGATCATTAAAGGCTAG | 724 |
| GAACATATCATCCACCAGATTATCACGCTATAATAG | 609 |
| GAATGATAATGTGAACACGTCATCATAGATGGTTAG | 570 |
| TGTACGAAGCTATAGTGGGTGATTATAGTAGTTAGG | 531 |
| GAAAAATAGCGACCGGACACCACGTAATGCAACTAG | 501 |

Series 5
Target: ABI1, truncated, D143A, DHFR fusion (Arabidopsis thaliana)
Technique: DHFR PCA, deep sequencing
Medium: yeast
Setting: methotrexate growth selection, single substitutions
Added: (+)-ABA 710 µM
Reference: wild-type fitted maximum
Reading: higher = stronger binding
Parent: PYL1, truncated, DHFR fusion (Arabidopsis thaliana); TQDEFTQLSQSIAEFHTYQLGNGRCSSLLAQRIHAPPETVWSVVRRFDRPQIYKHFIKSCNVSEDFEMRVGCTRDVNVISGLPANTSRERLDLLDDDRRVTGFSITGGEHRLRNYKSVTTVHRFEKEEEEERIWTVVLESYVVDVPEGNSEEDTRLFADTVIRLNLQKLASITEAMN; partner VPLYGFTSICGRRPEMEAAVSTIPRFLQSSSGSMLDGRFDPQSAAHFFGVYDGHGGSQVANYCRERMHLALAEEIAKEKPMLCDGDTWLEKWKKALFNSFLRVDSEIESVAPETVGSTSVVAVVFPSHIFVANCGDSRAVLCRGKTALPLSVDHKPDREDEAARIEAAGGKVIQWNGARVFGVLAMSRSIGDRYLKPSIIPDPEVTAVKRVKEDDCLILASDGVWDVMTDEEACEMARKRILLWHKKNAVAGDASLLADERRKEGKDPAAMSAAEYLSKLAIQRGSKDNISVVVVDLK
| Change | relative binding score |
| --- | --- |
| V118Y | 83.4% |
| I12Y | 81.2% |
| D75M | 100% |
| V78A | 82.1% |
| N61Q | 103% |
| D65W | 90.9% |
| S87H | 18.4% |
| F5W | 109% |
| S27M | 88.6% |
| T1K | 102% |
| V121M | 74.7% |
| L166D | 7.54% |

Series 6
Target: Transcription factor Sp1 (SP1, Homo sapiens, UniProt P08047, residues 1-785, full length assumed)
UniProt P08047, sequence (whole entry, looked up): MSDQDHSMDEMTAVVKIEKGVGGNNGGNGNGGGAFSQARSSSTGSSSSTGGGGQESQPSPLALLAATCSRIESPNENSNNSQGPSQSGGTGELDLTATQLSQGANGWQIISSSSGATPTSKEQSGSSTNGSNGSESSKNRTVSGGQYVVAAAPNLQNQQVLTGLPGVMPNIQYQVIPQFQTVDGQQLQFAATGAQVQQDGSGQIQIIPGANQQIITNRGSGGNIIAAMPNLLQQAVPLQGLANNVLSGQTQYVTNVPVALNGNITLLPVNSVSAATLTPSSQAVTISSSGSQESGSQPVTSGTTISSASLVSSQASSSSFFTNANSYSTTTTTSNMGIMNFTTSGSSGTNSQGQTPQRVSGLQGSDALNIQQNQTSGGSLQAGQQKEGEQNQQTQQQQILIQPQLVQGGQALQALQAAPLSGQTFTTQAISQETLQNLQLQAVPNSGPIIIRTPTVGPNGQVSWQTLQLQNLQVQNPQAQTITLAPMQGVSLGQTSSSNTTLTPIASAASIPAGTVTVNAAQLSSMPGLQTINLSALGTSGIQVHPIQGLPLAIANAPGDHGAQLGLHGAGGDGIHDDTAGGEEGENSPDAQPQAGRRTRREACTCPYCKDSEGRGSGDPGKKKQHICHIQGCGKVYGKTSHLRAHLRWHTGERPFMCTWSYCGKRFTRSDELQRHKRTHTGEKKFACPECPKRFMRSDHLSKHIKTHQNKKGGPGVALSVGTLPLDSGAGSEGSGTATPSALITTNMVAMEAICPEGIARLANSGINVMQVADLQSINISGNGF
Technique: protein-binding microarray
Form: double-stranded DNA, one strand shown
Medium: in vitro
Concentration: not given
Setting: k-mer, scored over probes, only values ≥0.25
Reading: higher = stronger binding
| Strand | E-score |
| --- | --- |
| GGGCAGGA | 0.271 |
| ATCCCCTA | 0.27 |
| ATCCCCAC | 0.417 |
| AATGTATA | 0.266 |
| CCCCTACC | 0.368 |
| TGATGGAA | 0.259 |
| CCCCTCTA | 0.348 |
| GTGTCATA | 0.316 |
| AAGATACA | 0.267 |
| CCTCCCAC | 0.385 |
| GGGGATAA | 0.315 |
| GGGCGTAC | 0.3 |
| CCCCTTAC | 0.29 |
| TCCCCAAA | 0.254 |
| CTCCCCGC | 0.377 |
| CGTATATA | 0.256 |
| AGGCGGGG | 0.482 |
| CCCCTCTC | 0.264 |
| CCCACACA | 0.312 |
| CTGCCCCC | 0.251 |
| ATTTACGG | 0.282 |
| AAGGGCGG | 0.323 |
| GATAACCA | 0.252 |
| CACCCCAA | 0.291 |
| GGGTTGCA | 0.263 |

Other studies, line by line
| Molecule | target | assay | test system | conditions | scale | quantity | result |
| --- | --- | --- | --- | --- | --- | --- | --- |
| PhoQ, residues 284 288 289 292 302 303 TLSLKA | PhoP, residues 12 14 15 18 19 SEGLL (Escherichia coli, UniProt P23836) | Sort-seq, item: YFP reporter | E. coli | PhoQ-PhoP variant library, added: 10 µM Mg2+ | reference: high Mg2+ state, higher = stronger signaling | fold induction | 1.51 |

Repeated from above (series 1):
| Change | normalised enrichment score |
| --- | --- |
| SNARRSLNEGGST [F9E] | -0.263 |
| LNARRSLNFGGST [S1L] | 0.354 |
| SNARRSLNFGDST [G11D] | 0.588 |
| SNARRSLVFGGST [N8V] | 0.418 |
| SNARQSLNFGGST [R5Q] | 0.327 |
| SNARRSLNFNGST [G10N] | 0.142 |
| SNLRRSLNFGGST [A3L] | -0.282 |
